Assay results from different studies.
Compare with care: the assays were run in different laboratories.

COC(C(=O)C(C)=O)C1Cc2cc3cc(OC4CC(OC5CC(O)C(O)C(C)O5)C(O)C(C)O4)c(C)c(O)c3c(O)c2C(=O)C1OC1CC(OC2CC(O)C(O)C(C)O2)C(O)C(C)O1 (stereo not shown) has a GI50 of over 10000 nM (NCI/ADR-RES; cell growth or viability).
COc1cc(/C=C(\C#N)C(=O)Nc2nnc(C(F)(F)F)s2)ccc1OC(=O)N1CCN(C(=O)CCCC(=O)NCCCC[C@@H]2NC(=O)[C@@H](Cc3ccc(O)cc3)NC(=O)[C@H](CC(=O)O)NC(=O)CNC(=O)[C@H](CCCNC(=N)N)NC2=O)CC1 gave a GI50 of 76000 nM (HCC827; cell growth or viability, MTT).
For CC(=O)N1CCCC[C@H]1C(=O)NC(C)(C)C(=O)N1CCCC[C@H]1C(=O)NC(C)(C)C(=O)NC(C)(C)C(=O)N[C@@H](CC(C)C)C(=O)NC[C@H](C)C(=O)NCC(=O)NC(C)(C)C(=O)NC(C)(C)C(=O)N1CCCC[C@H]1C(=O)NC(C)(C)C(=O)NCC(=O)N[C@@H](CC(C)C)C(=O)NC(C)(C)C(=O)N[C@@H](CC(C)C)C[N+]1=C2CCCN2CCC1, the GI50 was 219 nM (39 cancer cell lines; 48 h, mean over panel).
For CN1C(=O)C2(Cc3ccc(CC45SSC(CO)(C(=O)N4C)N(C)C5=O)cc3)SSC1(CO)C(=O)N2C (racemic), the GI50 was 520 nM (MCF7; cell growth or viability, resazurin).
CCCc1cc(OC)c2c(c1)OCO2 gave a GI50 of 113000 nM (HCT-116; cell growth or viability, MTT; 72 h).
With CC(=O)N1CCCC[C@H]1C(=O)NC(C)(C)C(=O)N1CCCC[C@H]1C(=O)NC(C)(C)C(=O)NC(C)(C)C(=O)N[C@@H](CC(C)C)C(=O)N[C@@H](C)CC(=O)NCC(=O)NC(C)(C)C(=O)NC(C)(C)C(=O)N1CCCC[C@H]1C(=O)NC(C)(C)C(=O)NCC(=O)N[C@@H](CC(C)C)C(=O)NC(C)(C)C(=O)N[C@@H](CC(C)C)C[N+]1=C2CCCN2CCC1 the GI50 was 155 nM (39 cancer cell lines; 48 h, mean over panel).
CC1CN1c1cc(O)c2nc(N)sc2c1 (stereo not shown) has a GI50 of over 6000 nM (MOLM-13; cell growth or viability, MTT; 7 days).
Cc1cccc(O)c1C(=O)OCC1(O)C(Nc2ccc3c(c2)Cc2ccccc2-3)C(N)C(NC(=O)N(C)C)(C(C)O)C1(C)O (stereo not shown) gave a GI50 of 880 nM (M14; cell growth or viability, SRB).
The GI50 of CC(=O)N1CCCC[C@H]1C(=O)NC(C)(C)C(=O)N1CCCC[C@H]1C(=O)NC(C)(C)C(=O)NC(C)(C)C(=O)N[C@@H](CC(C)C)C(=O)NCCC(=O)NCC(=O)NC(C)(C)C(=O)NC(C)(C)C(=O)N1CCCC[C@H]1C(=O)NC(C)(C)C(=O)NCC(=O)N[C@@H](CC(C)C)C(=O)NC(C)(C)C(=O)N[C@@H](CC(C)C)C[N+]1=C2CCCN2CCC1 is reported as 646 nM (39 cancer cell lines; 48 h, mean over panel).
For CCC[P+](c1ccccc1)(c1ccccc1)c1ccccc1, the GI50 was 9530 nM (HCT-116; cell growth or viability; 72 h).

A few entries again:
COC(C(=O)C(C)=O)C1Cc2cc3cc(OC4CC(OC5CC(O)C(O)C(C)O5)C(O)C(C)O4)c(C)c(O)c3c(O)c2C(=O)C1OC1CC(OC2CC(O)C(O)C(C)O2)C(O)C(C)O1 (stereo not shown) has a GI50 of over 10000 nM (NCI/ADR-RES; cell growth or viability).
